# Measurements of several laboratories.
# Each numbered part is a random draw from the data of one study; scales do not carry over between parts. Several values in a cell are separate wells, animals, samples, runs or records.
# Sequence of UniProt P32298 (whole entry, looked up): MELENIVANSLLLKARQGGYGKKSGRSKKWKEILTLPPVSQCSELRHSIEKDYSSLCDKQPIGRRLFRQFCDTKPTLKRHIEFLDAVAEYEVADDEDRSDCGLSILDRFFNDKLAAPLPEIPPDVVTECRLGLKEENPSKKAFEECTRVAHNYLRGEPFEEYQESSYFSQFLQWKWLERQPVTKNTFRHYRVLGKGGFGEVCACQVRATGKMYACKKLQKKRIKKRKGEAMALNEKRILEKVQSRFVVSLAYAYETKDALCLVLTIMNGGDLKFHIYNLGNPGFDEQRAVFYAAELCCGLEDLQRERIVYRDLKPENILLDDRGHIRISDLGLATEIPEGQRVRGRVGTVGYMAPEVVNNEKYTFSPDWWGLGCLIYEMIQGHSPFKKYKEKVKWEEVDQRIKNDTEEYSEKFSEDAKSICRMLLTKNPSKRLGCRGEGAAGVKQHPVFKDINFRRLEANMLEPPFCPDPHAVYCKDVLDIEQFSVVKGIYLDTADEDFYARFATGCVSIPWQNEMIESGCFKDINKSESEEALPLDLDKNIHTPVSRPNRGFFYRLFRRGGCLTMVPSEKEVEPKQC
# Sequence of UniProt O15264 (whole entry, looked up): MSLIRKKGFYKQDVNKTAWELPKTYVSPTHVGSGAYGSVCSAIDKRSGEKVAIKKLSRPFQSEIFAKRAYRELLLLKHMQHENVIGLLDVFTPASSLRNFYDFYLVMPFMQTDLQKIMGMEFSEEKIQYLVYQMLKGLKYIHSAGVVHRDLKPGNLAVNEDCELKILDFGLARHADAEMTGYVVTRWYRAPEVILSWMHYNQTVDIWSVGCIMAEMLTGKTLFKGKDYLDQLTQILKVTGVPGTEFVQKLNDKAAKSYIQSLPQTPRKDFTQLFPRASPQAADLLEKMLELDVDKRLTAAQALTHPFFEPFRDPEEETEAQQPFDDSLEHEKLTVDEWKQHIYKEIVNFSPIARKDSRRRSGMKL
# Sequence of UniProt O14757 (whole entry, looked up): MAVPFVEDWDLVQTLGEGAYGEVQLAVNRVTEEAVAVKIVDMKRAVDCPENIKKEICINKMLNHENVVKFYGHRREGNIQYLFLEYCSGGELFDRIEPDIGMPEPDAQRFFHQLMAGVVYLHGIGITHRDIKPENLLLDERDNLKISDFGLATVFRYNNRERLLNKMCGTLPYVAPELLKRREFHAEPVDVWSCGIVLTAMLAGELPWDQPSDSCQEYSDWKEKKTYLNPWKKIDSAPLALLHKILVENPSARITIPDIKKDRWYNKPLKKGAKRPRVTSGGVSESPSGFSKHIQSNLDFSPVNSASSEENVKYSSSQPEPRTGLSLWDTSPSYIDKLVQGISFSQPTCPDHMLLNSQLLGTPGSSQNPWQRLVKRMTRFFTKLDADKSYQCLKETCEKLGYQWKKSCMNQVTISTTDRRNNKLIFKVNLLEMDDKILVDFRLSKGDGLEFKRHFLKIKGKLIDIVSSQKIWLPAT
# Sequence of UniProt P29597 (whole entry, looked up): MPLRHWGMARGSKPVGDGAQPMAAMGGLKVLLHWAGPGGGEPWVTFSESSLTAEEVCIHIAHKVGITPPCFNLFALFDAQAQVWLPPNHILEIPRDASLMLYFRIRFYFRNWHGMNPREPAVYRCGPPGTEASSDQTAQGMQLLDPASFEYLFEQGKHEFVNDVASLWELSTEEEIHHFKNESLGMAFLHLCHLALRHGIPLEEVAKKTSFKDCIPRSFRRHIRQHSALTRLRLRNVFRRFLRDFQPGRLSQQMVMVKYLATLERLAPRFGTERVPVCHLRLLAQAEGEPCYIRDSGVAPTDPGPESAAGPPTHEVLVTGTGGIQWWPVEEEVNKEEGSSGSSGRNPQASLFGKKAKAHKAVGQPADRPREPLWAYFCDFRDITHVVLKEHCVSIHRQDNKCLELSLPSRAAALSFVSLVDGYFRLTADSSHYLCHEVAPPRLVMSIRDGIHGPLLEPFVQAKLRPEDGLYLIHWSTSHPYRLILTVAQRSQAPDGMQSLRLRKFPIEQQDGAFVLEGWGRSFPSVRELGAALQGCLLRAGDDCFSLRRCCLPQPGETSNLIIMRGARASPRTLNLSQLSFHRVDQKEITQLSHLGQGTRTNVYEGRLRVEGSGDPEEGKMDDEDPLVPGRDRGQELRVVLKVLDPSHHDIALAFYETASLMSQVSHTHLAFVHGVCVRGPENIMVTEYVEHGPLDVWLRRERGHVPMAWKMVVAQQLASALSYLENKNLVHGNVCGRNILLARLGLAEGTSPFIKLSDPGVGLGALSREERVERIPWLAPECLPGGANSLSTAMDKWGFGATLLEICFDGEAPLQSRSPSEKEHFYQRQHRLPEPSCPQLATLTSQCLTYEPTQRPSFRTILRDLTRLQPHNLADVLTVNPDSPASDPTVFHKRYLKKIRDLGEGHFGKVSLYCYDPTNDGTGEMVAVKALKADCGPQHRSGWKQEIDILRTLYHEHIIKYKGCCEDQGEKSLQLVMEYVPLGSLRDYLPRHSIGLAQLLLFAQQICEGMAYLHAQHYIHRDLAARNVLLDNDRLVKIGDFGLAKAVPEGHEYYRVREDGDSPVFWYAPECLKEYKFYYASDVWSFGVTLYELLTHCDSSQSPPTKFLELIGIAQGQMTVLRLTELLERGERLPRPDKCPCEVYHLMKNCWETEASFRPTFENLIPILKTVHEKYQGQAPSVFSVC
# Sequence of UniProt Q6ZN16 (whole entry, looked up): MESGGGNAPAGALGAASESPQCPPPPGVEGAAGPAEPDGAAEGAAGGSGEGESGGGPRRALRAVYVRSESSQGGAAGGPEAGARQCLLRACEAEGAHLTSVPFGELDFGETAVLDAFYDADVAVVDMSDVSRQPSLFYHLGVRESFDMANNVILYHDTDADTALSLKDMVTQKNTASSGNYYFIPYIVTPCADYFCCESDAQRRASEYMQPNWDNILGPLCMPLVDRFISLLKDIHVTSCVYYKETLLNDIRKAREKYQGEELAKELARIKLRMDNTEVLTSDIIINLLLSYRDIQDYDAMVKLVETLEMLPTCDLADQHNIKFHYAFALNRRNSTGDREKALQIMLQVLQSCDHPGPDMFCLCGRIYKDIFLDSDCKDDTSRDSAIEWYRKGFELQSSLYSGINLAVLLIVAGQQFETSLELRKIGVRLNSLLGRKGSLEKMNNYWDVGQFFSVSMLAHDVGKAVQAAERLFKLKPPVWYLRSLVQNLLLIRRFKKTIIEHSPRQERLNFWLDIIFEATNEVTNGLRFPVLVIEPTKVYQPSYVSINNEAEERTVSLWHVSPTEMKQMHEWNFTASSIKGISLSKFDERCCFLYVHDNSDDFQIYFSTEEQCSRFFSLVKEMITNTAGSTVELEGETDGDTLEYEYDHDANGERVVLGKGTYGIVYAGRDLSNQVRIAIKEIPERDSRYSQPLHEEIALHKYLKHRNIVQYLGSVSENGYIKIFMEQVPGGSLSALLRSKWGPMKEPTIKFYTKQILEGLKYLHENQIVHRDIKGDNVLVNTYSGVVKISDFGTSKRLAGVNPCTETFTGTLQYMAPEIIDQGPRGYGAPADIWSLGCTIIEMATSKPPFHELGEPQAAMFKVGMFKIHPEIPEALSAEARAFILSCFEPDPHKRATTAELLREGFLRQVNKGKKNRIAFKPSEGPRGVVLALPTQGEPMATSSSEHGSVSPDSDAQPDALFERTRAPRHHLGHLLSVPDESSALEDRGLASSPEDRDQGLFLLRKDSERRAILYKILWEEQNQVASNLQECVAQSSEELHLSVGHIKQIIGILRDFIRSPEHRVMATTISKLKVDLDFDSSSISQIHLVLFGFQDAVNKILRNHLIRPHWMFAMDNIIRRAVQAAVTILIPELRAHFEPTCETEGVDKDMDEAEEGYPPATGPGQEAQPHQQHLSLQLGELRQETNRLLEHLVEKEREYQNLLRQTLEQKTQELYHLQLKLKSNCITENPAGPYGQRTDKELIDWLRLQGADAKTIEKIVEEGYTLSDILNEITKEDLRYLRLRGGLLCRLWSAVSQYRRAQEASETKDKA
# Sequence of UniProt P51957 (whole entry, looked up): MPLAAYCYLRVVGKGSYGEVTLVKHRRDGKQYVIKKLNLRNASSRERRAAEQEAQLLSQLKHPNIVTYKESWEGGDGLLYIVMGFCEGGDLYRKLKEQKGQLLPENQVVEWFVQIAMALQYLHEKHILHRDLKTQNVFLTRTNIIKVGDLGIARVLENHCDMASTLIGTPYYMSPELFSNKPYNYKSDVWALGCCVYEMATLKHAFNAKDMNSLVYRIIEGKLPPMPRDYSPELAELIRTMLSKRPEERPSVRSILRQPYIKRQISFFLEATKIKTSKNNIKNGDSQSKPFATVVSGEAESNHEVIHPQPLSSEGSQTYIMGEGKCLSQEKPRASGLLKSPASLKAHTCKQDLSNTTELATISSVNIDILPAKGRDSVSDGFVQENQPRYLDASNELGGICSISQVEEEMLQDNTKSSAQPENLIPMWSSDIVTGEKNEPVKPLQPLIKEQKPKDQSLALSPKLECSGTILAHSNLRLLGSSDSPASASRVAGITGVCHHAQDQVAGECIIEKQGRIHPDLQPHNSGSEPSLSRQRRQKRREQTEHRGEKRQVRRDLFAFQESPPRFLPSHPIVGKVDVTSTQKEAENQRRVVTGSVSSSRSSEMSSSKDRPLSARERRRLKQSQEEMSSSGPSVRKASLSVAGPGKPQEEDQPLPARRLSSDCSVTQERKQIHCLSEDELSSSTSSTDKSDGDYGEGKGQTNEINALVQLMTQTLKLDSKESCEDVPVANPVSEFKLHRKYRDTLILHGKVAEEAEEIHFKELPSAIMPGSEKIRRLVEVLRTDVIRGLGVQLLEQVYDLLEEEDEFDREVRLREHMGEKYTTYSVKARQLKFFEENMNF

# Study 1
# Structure (SMILES): Fc1ccc(-c2nc3n(c2-c2ccncc2)CCS3)cc1
# Effect on: enzyme activity
# Mode: inhibitor
# Concentration: 0.5 µM
# Reference: control
target,remaining activity [%]
"EPHA5 (Homo sapiens, UniProt P54756)",89.7
"PRKCD (Homo sapiens, UniProt Q05655)",99.1
"MAPK13 (Homo sapiens, UniProt O15264)",111
"CHEK1 (Homo sapiens, UniProt O14757)",95.9
"STK38 (Homo sapiens, UniProt Q15208)",88
"NEK4 (Homo sapiens, UniProt P51957)",93.5
"IRAK4 (Homo sapiens, UniProt Q9NWZ3)",109
"LRRK2 (Homo sapiens, UniProt Q5S007)",96.7
"MAP4K2 (Homo sapiens, UniProt Q12851)",109
"BTK (Homo sapiens, UniProt Q06187)",103

# Study 2
# Species: mouse
# Medium: microsomes or S9
# Concentration: 2 µM
# Time: 0.5 h
Structure (SMILES),remaining compound [%]
CC(C)(C)Nc1ncc(-c2cn[nH]c2)cc1-c1nc2ccccc2o1,70.7
CC1c2cc3c(cc2C2(CCCC2)CN1C(=O)c1ccncn1)OCCO3 (stereo not drawn),0.0263
CC(=O)c1cccc(NC(=O)c2ccc(C(C)(C)C)cc2)c1,0.817
COc1cccc(Nc2ccc(-n3ccnc3)nn2)c1,96.2
CCCn1c(=O)c2c(nc3n2C(C)C(C)=NN3CCCO)n(C)c1=O (stereo not drawn),12.3
CC(C)Nc1ncc2scc(COc3cccc4ncccc34)c2n1,3.24
CC(C)C(C(=O)NC1CCN(C(=O)NC(C)(C)C)CC1)N(C)C (stereo not drawn),49.7
Cn1ncc2cc(NC(=O)N3C[C@H]4CC=CC[C@H]4C3)ccc21,67.3
NCCN(C1CCOCC1)S(=O)(=O)c1ccc(C2CCCCC2)cc1,55
CCc1cccc(C)c1/N=C1/N=C(N2CCOCC2)N(c2ccc(C)cc2)C12CCCCC2,73.7
CN(Cc1cc2cc(F)ccc2[nH]1)C(=O)CC1C(=O)NCCN1CC(C)(C)C (stereo not drawn),0.264

# Study 3
# Compound: CC[C@@H](C)c1nc2cc(Nc3ccnc4ccc(S(=O)(=O)C(C)C)cc34)ccc2s1
tested on,test,test system,conditions,CC50
,CCK-8,"L929 RIPK3 knockout, mouse","MEM with 10% FBS, together with: zVAD",85.4 µM and 54.8 µM
L929 RIPK3 knockout,cell viability,,"10% FBS, mean of 3, together with: zVAD",65 µM
L929,"cell viability, CCK-8",,"without zVAD, 10% FBS, mean of 3",57.7 µM
,CCK-8,"L929 RIPK3 knockout, mouse",MEM with 10% FBS,75.7 µM and 56 µM
L929,"cell viability, CCK-8",,"10% FBS, mean of 3, together with: zVAD",55.5 µM
L929 RIPK3 knockout,cell viability,,"without zVAD, 10% FBS, mean of 3",61.4 µM

# Study 4
# SMILES: C[C@@H](c1cccc(C#N)c1)n1cc(Cl)cc(C(N)=O)c1=N
# Effect on: cell-free assay
# Technique: competition with immobilised ligand
# Concentration: 1 µM
target,remaining binding [%]
"Non-receptor tyrosine-protein kinase TYK2, JH2 (TYK2, Homo sapiens, UniProt P29597)",94
"GRK4 (Homo sapiens, UniProt P32298)",99
"MAP4K1 (Homo sapiens, UniProt Q92918)",96
"PRKG2 (Homo sapiens, UniProt Q13237)",100
"LATS2 (Homo sapiens, UniProt Q9NRM7)",80
"EPHB2 (Homo sapiens, UniProt P29323)",80
"Tyrosine-protein kinase JAK3, JH1 (JAK3, Homo sapiens, UniProt P52333)",100
"MAP3K15 (Homo sapiens, UniProt Q6ZN16)",98
"MERTK (Homo sapiens, UniProt Q12866)",82
"BMP2K (Homo sapiens, UniProt Q9NSY1)",93
"CDK8 (Homo sapiens, UniProt P49336)",92
"FLT3 (Homo sapiens, UniProt P36888, K663Q)",92
"DSTYK (Homo sapiens, UniProt Q6XUX3)",87
"MAP3K12 (Homo sapiens, UniProt Q12852)",100
"PHKG1 (Homo sapiens, UniProt Q16816)",100

# Repeated from above (study 4):
target,remaining binding [%]
"BMP2K (Homo sapiens, UniProt Q9NSY1)",93
"CDK8 (Homo sapiens, UniProt P49336)",92
"FLT3 (Homo sapiens, UniProt P36888, K663Q)",92
"DSTYK (Homo sapiens, UniProt Q6XUX3)",87
